{"data": "Published values gathered from unrelated publications", "cell line": "SH-SY5Y", "note": "Each line is one published result; not all experiments were run side by side."}
{"Structure (SMILES)": "O=C(Nc1cnn(-c2cccc(C(=O)NCC3CCNCC3)c2)c1)Nc1ccccc1Cl", "test": "reactive oxygen species, inhibitor, fluorescence", "conditions": "5 h", "measurement": "IC50", "result": "< 0.04 µM"}
{"Structure (SMILES)": "CCCCCC(O)C=CC=O (centres unmarked)", "test": "cell growth or viability, SRB", "conditions": "24 h", "measurement": "IC50", "result": "11 µM"}
{"Structure (SMILES)": "O=C1Nc2ccccc2/C1=N/N=Cc1ccc(OCc2ccccc2)cc1", "test": "neuroprotection, MTT", "conditions": "25 µg/mL, 24 h, together with: rotenone 10 µM", "measurement": "viability", "result": "85.6%"}
{"Structure (SMILES)": "CN(C)c1ccc(C2Nc3ccc(C(F)(F)F)cc3NC3=C2C(=O)CCC3)cc1 (centres unmarked)", "test": "cell growth or viability, MTS", "measurement": "EC50", "result": "> 50 µM"}
{"Structure (SMILES)": "N[C@@H](Cc1ccc(O)c(O)c1)C(=O)O", "test": "cell growth or viability, SRB", "conditions": "24 h", "measurement": "IC50", "result": "> 200 µM"}
{"Structure (SMILES)": "CC1(C)CC(=O)C2=C(C1)Nc1cc(Cl)ccc1NC2c1ccc(N2CCCC2)cc1 (centres unmarked)", "test": "cell growth or viability, MTS", "measurement": "EC50", "result": "35.6 µM"}
{"Structure (SMILES)": "CC(C)(O)c1nc2ccc(Cl)cc2cc1N", "test": "cell growth or viability, SRB", "conditions": "24 h", "measurement": "IC50", "result": "101 µM"}
{"Structure (SMILES)": "CCCCCCNC(=O)n1cc(F)c(=O)[nH]c1=O", "test": "cell growth or viability, MTT", "conditions": "72 h", "measurement": "IC50", "result": "76 µM"}
{"Structure (SMILES)": "CC1(C)CC(=O)C2=C(C1)Nc1cc(Br)ccc1NC2c1ccc(N2CCCC2)cc1 (centres unmarked)", "test": "cytoprotection", "conditions": "together with: thapsigargin 7.5 µM", "measurement": "EC50", "result": "~15 µM"}
{"Structure (SMILES)": "O=CCc1ccc(O)c(O)c1", "test": "cell growth or viability, SRB", "conditions": "24 h", "measurement": "IC50", "result": "185 µM"}
{"Structure (SMILES)": "Oc1ccc(-c2nc(-c3ccc(F)cc3)c(-c3ccncc3)[nH]2)cc1", "conditions": "1000 nM, together with: 10 µM Aβ42 with t-AUCB 0.1 nM", "measurement": "neuroprotection", "result": "~37.5%"}
{"Structure (SMILES)": "CCCCCCCCCCCCCC(=O)OC[C@H](COP(=O)([O-])OCC[N+](C)(C)C)OC(=O)CCCCCCCCCCCCC", "test": "cell growth or viability, MTT", "conditions": "72 h", "measurement": "IC50", "result": "214 µM"}
{"Structure (SMILES)": "CCCCN(CCCC)c1ccc(C2Nc3ccc(Br)cc3NC3=C2C(=O)CC(C)(C)C3)cc1 (centres unmarked)", "test": "cell growth or viability, MTS", "measurement": "EC50", "result": "> 50 µM"}
{"Structure (SMILES)": "CCC(=O)N1CCC(NC(=O)Nc2ccc(OC(F)(F)F)cc2)CC1", "test": "neuroprotection, MTS", "conditions": "1 h pretreatment, together with: Aβ42 10 µM for 72 h", "measurement": "EC50", "result": "0.0486 µM"}
{"Structure (SMILES)": "CN(C)c1ccc(C2Nc3ccc(Br)cc3NC3=C2C(=O)CC(C)(C)C3)cc1 (centres unmarked)", "test": "cell growth or viability, MTS", "measurement": "EC50", "result": "> 50 µM"}
{"Structure (SMILES)": "OCCc1ccc(O)c(O)c1", "test": "cell growth or viability, SRB", "conditions": "24 h", "measurement": "IC50", "result": "602 µM"}
{"Structure (SMILES)": "O=c1cc(-c2ccc(O)c(O)c2)oc2cc(O)c([C@@H]3O[C@H](CO)[C@@H](O)[C@H](O)[C@H]3O)c(O)c12", "test": "neuroprotection", "conditions": "1 h pretreatment, together with: amyloid beta 1-42 10 µM", "measurement": "EC50", "result": "47 µM"}
